Experimental data from different studies.
Compare with care: the assays were run in different laboratories.
Organism: Candida albicans

SMILES = CN(C/C=C/C#CC(C)(C)C)Cc1cccc2ccccc12; test = broth microdilution; test system = BNCC 186382; MIC = 4 µg/mL
SMILES = C=C1C(=O)O[C@@H](CCCCCCCCCCCCC)[C@@H]1C(=O)O; test system = CAF2-1; MIC = 64 µg/mL
SMILES = Nc1nc(=O)[nH]cc1F; test = broth microdilution; test system = BNCC 186382; MIC = 8 µg/mL
SMILES = C[C@@H]1[C@H](O)[C@@H](C)/C=C/C=C/C=C/C=C/C=C/C=C/C=C/[C@H](O[C@@H]2O[C@H](C)[C@@H](O)[C@H](N)[C@@H]2O)C[C@@H]2O[C@](O)(C[C@@H](O)C[C@@H](O)[C@H](O)CC[C@@H](O)C[C@@H](O)CC(=O)O[C@H]1C)C[C@H](O)[C@H]2C(=O)O; test system = SP3903, RPMI MOPS; conditions = 48 h, 37 °C; MIC = 0.5 µM
SMILES = O=C1C(Br)=C(Br)C(=O)c2ccccc21; test system = ATCC 60193; conditions = 24 h, added: sorbitol 0.8 M; MIC = 6.25 µg/mL
SMILES = OC(Cn1cncn1)(Cn1cncn1)c1ccc(F)cc1F; test = broth microdilution; test system = 322; conditions = 24 h, compound alone; MIC = 1 µg/mL
SMILES = CC[C@H](C)[C@H](NC(=O)CN)C(=O)N[C@@H](CC(C)C)C(=O)N[C@@H](CC(=O)O)C(=O)N[C@@H](C)C(=O)N[C@H](C(=O)N[C@@H](CCCCN)C(=O)N[C@@H](C)C(=O)N[C@H](C(=O)N[C@@H](C)C(=O)N[C@@H](CCCCN)C(=O)N[C@@H](C)C(=O)N[C@@H](C)C(=O)NCC(N)=O)[C@@H](C)CC)[C@@H](C)CC; test system = ATCC 90029, RPMI MOPS; conditions = 24 h, pH 7.0, 33 °C; MIC = 256 µg/mL
SMILES = OC(Cn1cncn1)(Cn1cncn1)c1ccc(F)cc1F; test system = alveolar fluid isolate, RPMI MOPS; conditions = 48 h, 37 °C; MIC = 2 µM
SMILES = CCCCCOc1ccc(-c2ccc(-c3ccc(C(=O)N[C@H]4C[C@@H](O)[C@@H](OCC[N+](C)(C)C)NC(=O)[C@@H]5[C@@H](O)[C@@H](C)CN5C(=O)[C@H]([C@@H](C)O)NC(=O)[C@H]([C@H](O)[C@@H](O)c5ccc(O)cc5)NC(=O)[C@@H]5C[C@@H](O)CN5C(=O)[C@H]([C@@H](C)O)NC4=O)cc3)cc2)cc1; test = CLSI broth microdilution; test system = 98-17; MIC = 0.06 µg/mL
SMILES = OC(Cn1cncn1)(Cn1cncn1)c1ccc(F)cc1F; test system = CAF2-1; MIC = 1 µg/mL

Some of these lines once more:
SMILES = OC(Cn1cncn1)(Cn1cncn1)c1ccc(F)cc1F; test system = CAF2-1; MIC = 1 µg/mL
